Results of several laboratories.
Lines come from different studies, so protocols differ. “And” joins repeats or separate records; there may be more than shown. ± marks the error that the study gave.

For `CC(c1ccccc1)(c1ccc(O)cc1)c1ccc(O)cc1`, “spheroid area increase” read 128% (HepG2 spheroids; planimetry; 2.5 µM, 0 to 24 h; relative to: mean area of 72 h spheroids).
`C[C@]12CC[C@H](O)C[C@H]1CC[C@@H]1[C@@H]2CC[C@]2(C)[C@@H](c3ccc(=O)oc3)CC[C@]12O` has a mRNA level of 0.179 and 0.206 and 0.201 (MCF7; RT-qPCR, measured: AGR2; 50 nM, 48 h, without estradiol, unit not given; relative to: untreated).
With `C/C=C(/C)C(=O)O[C@H]1C(C)=C2C([C@@H]1OC(=O)CCCCCCC)[C@@](C)(OC(C)=O)C[C@H](OC(=O)CCC)[C@@]1(O)[C@H]2OC(=O)[C@@]1(C)O` (stereo partly shown) the efficacy was 32% (LDR; silenced CMV-GFP reporter derepression, qHTS).
`Nc1ncc(-c2nc(N3CCOCC3)nc(N3CCOCC3)n2)c(C(F)F)n1` has a GI50 of 472 nM (SW480; 72 h).
`COc1ccc([C@@H](O)c2cc(-c3ncnc4cc(N5CCOCC5)ccc34)c(F)cc2Cl)nn1` gave a clonogenic survival of 4 ± 0.4% (M12; 300 nM, together with: radiation 2.5 Gy).
`O=C(Nc1ccc2[nH]nc(-c3ccncc3)c2c1)[C@@H]1CCN(CC(=O)N2CCN(c3ccc(-c4ncccn4)cc3)CC2)C1` gave a PI-positive cells of 12.8 count and 11.7 count and 12 count (HCT116; IncuCyte; concentration not given, 36 (unit not given)).
For `CCN(CC)c1ccc(C=NNC(=O)CSc2nc3ccccc3c(=O)n2Cc2ccc(S(N)(=O)=O)cc2)c(O)c1`, the CC50 was over 100000 nM (SF-268; NCI five-dose screen).
`COc1ncccc1-c1cnn2ccc(N3CCN(C(=O)OC(C)C)CC3)nc12` has an inhibition of about 60% (hTERT-RPE1; measured: AP-2 µ2 Thr156 phosphorylation; 10 µM, 2 h).
`C/C=C(/C)C(=O)O[C@H]1C(C)=C2[C@H]([C@@H]1OC(=O)CCCCCCC)[C@@](C)(OC(C)=O)C[C@H](OC(=O)CCC)[C@@]1(O)[C@H]2OC(=O)[C@@]1(C)O`: “normalized enrichment score” 1.53 (HEK-293T; RNA-seq GSEA, measured: Hallmark xenobiotic metabolism; 500 nM, 6 h; direction not given).
`Oc1cc(Cl)ccc1Oc1ccc(Cl)cc1Cl`: “point of departure” 5.37 µM (HepG2; protein level, measured: TNFAIP3 (A20); 1 h, distribution mode 1).
With `O=C1NC(=O)N(CCc2ccc(F)cc2)C(=O)/C1=C/C=C/c1ccccc1` the efficacy was 41% (LDR; silenced CMV-GFP reporter derepression, qHTS).
The LC50 of `COc1cc(CCC[P+](c2ccccc2)(c2ccccc2)c2ccccc2)c(OC)c2c1OCO2.[I-]` is reported as over -4 log M (HT-29; SRB).
The PI-positive cells of `Cn1nccc1Nc1nccc(-c2ccn([C@H](CO)c3ccc(Cl)c(F)c3)c(=O)c2)n1` is reported as 5.58 count and 7.58 count and 8 count (HCT116; IncuCyte; concentration not given, 28 (unit not given)).
`COc1ccc(CCN(C)CCCC(C#N)(c2ccc(OC)c(OC)c2)C(C)C)cc1OC` (stereo not shown): intracellular [3H]-paclitaxel “no effect” (KB-3-1; 10 µM).
The inhibition of `COc1ccc([C@H]2c3[nH]c4ccc(Cl)cc4c3CCN2C(=O)Oc2ccc(Cl)cc2)cc1` is reported as 45% (HUVEC and PBMC co-culture; BioMAP SAg, measured: MCP-1; 0.1 µM, 24 h, together with: TCR ligands).
With `CNC(=O)Oc1cc(C)c(SC)c(C)c1` the specificity ratio was 8.83 (SH-SY5Y; neurite outgrowth; nominal concentration; relative to: IC10 over EC10).
With `COc1c(CCC[P+](c2ccccc2)(c2ccccc2)c2ccccc2)cc2c(c1OC)OCO2.[I-]` the LC50 was over -4 log M (RPMI-8226; SRB).
For `CC(C)N1CCC(NC2CCN(c3cccc(-c4cc5cc(F)ccc5[nH]4)c3)CC2)CC1`, the GI50 was 1840 nM (OVCAR-8).
For `COc1c(C)c2c(c(O)c1C/C=C(\C)CCC(=O)O)C(=O)OC2`, the IC50 was 724 nM (Panc1005; cell proliferation; pancreas cancer).
`O=C1N(Cc2ccccc2Cl)c2ccccc2C12NN=C(c1ccccc1)S2` (stereo not shown) — result for “mRNA fold change”: 1.53 (MDA-MB-468; gene array, measured: SNX11; 10 µM, 12 h; relative to: untreated).
`COc1ccc2c(c1)[nH]c1c(C)nccc12` has a methylation reduction of 0% (DU-145; bisulfite pyrosequencing, measured: RASSF1A promoter CpG site 24; concentration not given; relative to: vehicle).
`CO[C@H]1[C@H](O)[C@H](O[C@H]2CC[C@@]3(C=O)[C@H](CC[C@@H]4[C@@H]3CC[C@]3(C)[C@@H](C5=CC(=O)OC5)CC[C@]43O)C2)O[C@@H](C)[C@@H]1O` gave a MyBP-C level of 10.1% (MYBPC3 iPSC cardiomyocytes; plate-normalised; concentration not given, 24 h, hit retest).
`N#Cc1nn(-c2c(Cl)cc(C(F)(F)F)cc2Cl)c(N)c1[S+]([O-])C(F)(F)F` (stereo not shown): “lowest effective concentration” 1 µM (hiPSC glutamatergic neurons; burst frequency, multi-electrode array; 2 h).
For `Cc1n[nH]c(C)c1CSC1CCCCC1`, the selectivity index was 2.1 (Jurkat; cytotoxicity; relative to: IC50 HEK293 over IC50 Jurkat).
For `O=c1cc(-c2ccccc2)oc2c(O)c(O)ccc12`, “neurite branch number” read 1.8 to 2.1 (SH-SY5Y Aβ-GFP cells, scrambled shRNA; 5 µM).
Under “spheroid area increase”, `O=S(=O)(c1ccc(O)cc1)c1ccc(O)cc1` is recorded as 156% (HepG2 spheroids; planimetry; 5 µM, 0 to 24 h; relative to: mean area of 72 h spheroids).
`CC(C)[C@H](N)C(=O)N1CCC[C@H]1B(O)O` has an IL-1beta release of 210 pg/mL and 220 pg/mL and 239 pg/mL (Ker-CT keratinocytes, GSDMD knockout; inducer, ELISA; concentration not given, compound alone).
Under “G2 phase cells”, `Cc1cc(C(C)(C)c2ccc(O)c(C)c2)ccc1O` is recorded as 21.7 ± 1.17% (HepG2 spheroids; Hoechst flow cytometry; 0.10 µM, 96 h).
`COc1cc(C(=O)NC2CCN(C)CC2)c(F)cc1Nc1ncc2c(n1)N(C1CCCC1)CC(F)(F)C(=O)N2C` — result for “fold change in IC50”: 1.58 (HD-MB03; together with: ribociclib 5 µM; relative to: ribociclib over DMSO).
The CC50 of `CN1CCN(C2(CNC3CCN(c4cccc(-c5cc6cc(F)ccc6[nH]5)c4)CC3)CCC2)CC1` is reported as 5880 nM (SF-539).
For `Oc1ccc(C2(c3ccc(O)cc3)c3ccccc3-c3ccccc32)cc1`, “S phase cells” read 9.2 ± 2.56% (HepG2 spheroids; Hoechst flow cytometry; 0.01 µM, 96 h).
The IL-6 level of `O=C1CCP(=S)(c2ccccc2)CC1` is reported as 1.2 ± 0.24 pg/mL (SW480; ELISA; IC50, 72 h).
Under “neurite process number”, `O=c1cc(-c2ccc(O)cc2)oc2cc(O)cc(O)c12` is recorded as 3.7 to 3.8 (SH-SY5Y Aβ-GFP cells, scrambled shRNA; 5 µM).
`Nc1ncnc2c1ncn2[C@@H]1O[C@@H]2COP(=O)(O)O[C@H]3[C@@H](O)[C@H](n4cnc5c(=O)[nH]cnc54)O[C@@H]3COP(=O)(O)O[C@H]2[C@H]1O`: “pathway fold enrichment” 7.67 (HFF-1; RNA sequencing Reactome analysis, measured: Reactome R-HSA-9704646 defective HRR (PALB2, BRCA2/RAD51/RAD51C binding); together with: West Nile virus infection; relative to: West Nile virus infected cells, upregulated pathway).
With `Cc1nn(-c2nc3c(F)cc(F)cc3s2)c(O)c1C(c1ccc(C(F)(F)F)cc1)c1c(C)nn(-c2nc3c(F)cc(F)cc3s2)c1O` the viability was 61.8% and 41.3% and 78.5% and 63.5% (RAW-ISG; CCK-8; 50 µM).
With `CC1(C)CN(CCCCC(=O)N[C@H](Cc2ccc(O)c(I)c2)C(=O)N[C@H](Cc2ccccc2)C(=O)N[C@H](CCCCNC(=O)CCCCCCC(=O)NCCCC[C@H](NC(=O)N[C@@H](CCC(=O)O)C(=O)O)C(=O)O)C(=O)O)CC[N]2CC(C)(C)[S][Tc]2(=[O])[S]1` (stereo partly shown) [technetium-99m labelled] the surface-bound activity was 3.29 ± 0.72 %AD/mg protein (LNCaP; 25 nM, 1 h, 37 °C).
`C[C@]12CC[C@H](O)C[C@H]1CC[C@@H]1[C@@H]2CC[C@]2(C)[C@@H](C3=CC(=O)OC3)[C@@H](O)C[C@]12O` gave a MyBP-C level of 25.6% (MYBPC3 iPSC cardiomyocytes; plate-normalised; concentration not given, 24 h, hit retest).
For `Cn1ncc(-c2nc(N[C@H]3CC[C@H](N)CC3)ncc2Cl)c1CC1CC1`, protein level read “decreased” (human AML cell lines; immunoblot, measured: MYC and MDM2; 100 nM, 24 h).
`O=c1c(O)c(-c2ccc(O)c(O)c2)oc2cc(O)cc(O)c12` — result for “neurite process number”: 3.3 (SH-SY5Y Aβ-GFP cells, TRKB shRNA; 5 µM).
`Cn1cncc1C1=CN(c2ncnc3[nH]cnc23)CCS1` has a CC50 of 200000 nM (SF-268; CNS cancer).

For quick reference, copied from above:
Under “neurite process number”, `O=c1cc(-c2ccc(O)cc2)oc2cc(O)cc(O)c12` is recorded as 3.7 to 3.8 (SH-SY5Y Aβ-GFP cells, scrambled shRNA; 5 µM).
For `O=c1cc(-c2ccccc2)oc2c(O)c(O)ccc12`, “neurite branch number” read 1.8 to 2.1 (SH-SY5Y Aβ-GFP cells, scrambled shRNA; 5 µM).
With `COc1c(CCC[P+](c2ccccc2)(c2ccccc2)c2ccccc2)cc2c(c1OC)OCO2.[I-]` the LC50 was over -4 log M (RPMI-8226; SRB).
Under “spheroid area increase”, `O=S(=O)(c1ccc(O)cc1)c1ccc(O)cc1` is recorded as 156% (HepG2 spheroids; planimetry; 5 µM, 0 to 24 h; relative to: mean area of 72 h spheroids).
For `CC(c1ccccc1)(c1ccc(O)cc1)c1ccc(O)cc1`, “spheroid area increase” read 128% (HepG2 spheroids; planimetry; 2.5 µM, 0 to 24 h; relative to: mean area of 72 h spheroids).
Under “G2 phase cells”, `Cc1cc(C(C)(C)c2ccc(O)c(C)c2)ccc1O` is recorded as 21.7 ± 1.17% (HepG2 spheroids; Hoechst flow cytometry; 0.10 µM, 96 h).
